# Experimental data of several laboratories.
# Each numbered part is a random draw from the data of one study; scales do not carry over between parts.

# Sample 1
# Target: Histone acetyltransferase KAT6A, both winged helices, GST fusion (KAT6A, Homo sapiens, UniProt Q92794, residues 1-181)
# Method: protein binding microarray
# Molecule type: double-stranded DNA, one strand shown
# Matrix: in vitro
# Tested at: not given
# Notes: 8-mer, flanks averaged, mean of 2 arrays, mostly near background
# Relative to: not given
# Reading: higher = stronger binding
# Target sequence (chain): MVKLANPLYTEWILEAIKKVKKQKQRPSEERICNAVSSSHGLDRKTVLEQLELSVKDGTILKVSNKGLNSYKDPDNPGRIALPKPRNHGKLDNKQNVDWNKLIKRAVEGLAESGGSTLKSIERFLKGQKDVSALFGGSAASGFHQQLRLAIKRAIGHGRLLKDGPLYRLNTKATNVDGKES
Sequence,E-score
CCAACGAA,-0.0189
TCGCGACA,0.221
AAAAATAA,-0.156
ACACATAA,-0.125
GCGATGAA,0.063
CCAAATGG,-0.0872
ATTCAGAA,-0.00384
ACAAGTTG,-0.0819
CTATGATA,-0.0878
AGGCACCG,0.0157
ACGGACGG,0.26
CAAGGCAG,-0.316
GTTAACGA,-0.011
AATGCCCT,-0.168
GGAGTAAA,-0.167
CCAATACC,0.029

# Sample 2
# Target: RING finger protein unkempt homolog, zinc fingers 1-6, GST-SBP tag (UNK, Homo sapiens, UniProt Q9C0B0, residues 30-357)
# Method: RNA Bind-n-Seq
# Molecule type: RNA
# Matrix: in vitro
# Tested at: not given
# Notes: RNA with constant flanks, ends assumed
# Relative to: input RNA pool
# Reading: higher = stronger binding
# Target sequence (chain): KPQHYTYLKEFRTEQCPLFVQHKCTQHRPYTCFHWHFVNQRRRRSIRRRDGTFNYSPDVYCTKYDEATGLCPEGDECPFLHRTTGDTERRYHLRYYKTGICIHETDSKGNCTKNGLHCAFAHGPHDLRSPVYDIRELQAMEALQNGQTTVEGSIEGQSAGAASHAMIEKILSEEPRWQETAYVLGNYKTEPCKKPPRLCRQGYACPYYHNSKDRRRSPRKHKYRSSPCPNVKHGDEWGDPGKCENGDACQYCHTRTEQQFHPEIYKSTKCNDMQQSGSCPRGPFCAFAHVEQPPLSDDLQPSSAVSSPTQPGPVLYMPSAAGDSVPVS
Sequence,bound/input enrichment [ratio]
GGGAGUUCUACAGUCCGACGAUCUGGAACUGUUACUGCCUUGUCCUAGAGUUGUCCUGAUCAGGCUUGGGGCCUAGUUACAGAUCCGUCUUAAAGAAUUGCAUUAACUUAAAAAAAAUCAAACCUUGGCAAGAGCUAAAAUAACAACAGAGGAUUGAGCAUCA,0.45
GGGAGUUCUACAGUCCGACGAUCUCCCAGACUCCAACUCCCAGUUCUACUUUCUUCCAGGCAGAGCUGUGGAUCAAAGAAUUAACCCGUGUUUAUGAUUCUCGAGCACGAGAAAGAUUGCGCCAGAUUGAAGAACAGAAGGCACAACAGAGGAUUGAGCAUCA,0.389
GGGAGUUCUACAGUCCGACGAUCGCAGCAGCCUCCACUGAGUUUGAGAAUGCUGAAUCUGAGGCUGAUUUCAGUAUCCAUUUCAACCGGUUCAACCCUGAUGGGGAAGAGGAGGAUGUUACAGUACACGAAUGACGUUUCCUUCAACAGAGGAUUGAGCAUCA,0.0429
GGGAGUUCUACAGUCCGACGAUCAGGAAAAACCAAACUACAAAAAGAUUUAUUUAUAAUAUUCCACCUAAUAAUGAAACGAAUUCCGAAGAUUGCUCAGUAAUGCAGCCACCUGUUGCCUAUCCAGAAGAAAAUACACUACUCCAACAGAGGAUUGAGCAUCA,1.96
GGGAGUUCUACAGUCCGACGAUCUGCGUCCUUUUUCGUUUUUCGGACGAUGCCUUCAAUACCACCUUUAUUUCCACCACCGGAACCGACUUUAAGAUCAAAACAGUGGAACUACAAGGAAAGAAGAUCAAGCUACAGAUAUGGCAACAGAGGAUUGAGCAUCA,0.187
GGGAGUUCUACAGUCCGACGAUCCUGAAAUUCUCUCCAAUUAAAUAUGGCUACCAGCCUCGCAGGAAUUUUUGGCCAGCAAGAUCCGCUACGAGACUCUUAAAACUUCGCUAUCUCAUACUAGGAUCGGCUGUUGGGGGUGGCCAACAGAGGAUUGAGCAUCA,0.639
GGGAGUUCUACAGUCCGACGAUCUUGAAGAAAUCAGCAUUUCUAACUGAAGUGAGCCAAAAGGAAAAUUAUGCUGGGGCAAAGUUCCGUGAUCCACCUUCUCCUAGUGUUCUUCCAAAGCCUCCUAGUCACUGGAUGGGAAGCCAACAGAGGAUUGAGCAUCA,0.176
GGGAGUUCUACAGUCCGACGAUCGGAGCAUUAAUUGCUUCUCUUAUCAACUGCUACAUCAGAGACAACGCCGCCGUAGACGGCAUCCGCUUACAUCUGCAGGACACCUGUCCGCUUCUGUAUAGCACAGACGAUGCAGUUUGUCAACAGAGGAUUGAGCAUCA,0.126
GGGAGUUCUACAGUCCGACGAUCCCUCGUGCUGCCACAGUUGUUGCUCGUGGCCCCUUGAAGUGCGUUAAGCUGGACCGACCCCGAUUUGAACGUGUUCUUGGCCCAUGCUCAGACAUCCUCAAACGAAACAUCCAGCAGUACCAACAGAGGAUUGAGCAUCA,0.107
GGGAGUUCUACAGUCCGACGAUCUUUGAAGUACCUGGUCUUAGCAUCUGGACAGACCUCUUAUUAGCUCUUCGUAGUGGUGCAUUCCGGAAAAGACAAGUUUUGGGUCUCAGCGCAGGCCUCAGUUCUGUAUAGGCAAUGCUGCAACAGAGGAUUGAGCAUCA,1.76
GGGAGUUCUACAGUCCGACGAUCUCUACAUCUUCAUCUAUGCAGCCCAGCCCUGUAUCAAAUCAGUCACUUUUAUCAGAAUCUGCCGCAUCUUCUCAAUUGGACAGUACAUCUGUGGACAAAGCAGUACCUGAAACAGAAGAUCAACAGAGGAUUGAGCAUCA,0.299

# Sample 3
# Target: RNA binding protein fox-1 homolog 2, RRM domain, GST-SBP tag (RBFOX2, Homo sapiens, UniProt O43251-10, residues 100-194)
# Method: RNA Bind-n-Seq
# Molecule type: RNA
# Matrix: in vitro
# Tested at: 365 nM
# Notes: natural RNA segment, single round, ends assumed
# Relative to: no-protein control
# Reading: higher = stronger binding
# Construct (chain): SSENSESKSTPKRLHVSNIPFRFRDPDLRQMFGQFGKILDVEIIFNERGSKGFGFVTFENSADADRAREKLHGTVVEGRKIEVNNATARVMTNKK
Sequence,RBNS enrichment (R)
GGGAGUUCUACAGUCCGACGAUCCUAGAAUGAUGUACUCUACUUUCCCAAUAAGGUAGAAAUUUGGAAUCCAACGGAAUAUAAUCAGUUUUCAUUCAUUCCAGUGCCUAGUUAAAUCUAACCUGACUUAAACAUGGAAUUCUCGGGUGCCAA,0.659
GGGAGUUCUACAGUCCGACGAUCAUGCUAGACAUGGAGAAUCUGCUCUGUUUGUCCUUUAUACAUUUCUGUAGUUAACAGAACACUGUAAUGUGCCUUGGAGCUUAGUAACUUGUAAUAAAUUCAAUUGAUAUUGGAAUUCUCGGGUGCCAA,0.557
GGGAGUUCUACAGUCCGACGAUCAACAAGACAUUUACUAAGAAGAGCUAAAGGAAAGAAUUAAAGGUUUCUUAUGCUUUUUUGGGGGGGGGUGUCAAUUUUUAGUAUAUUAAGAGCUAAAAGAAGUAAAGGUUUGGAAUUCUCGGGUGCCAA,0.73
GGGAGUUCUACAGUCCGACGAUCAAGCCAUUUUGGUUCAUCCUGAUCACUUGAAUGAUAGACUCAAUGCCCUGUGCCUGGCAGGGAGCGCUUGCAGAGGUGUCCUAGCCUUAGAGGGCUACUUCAGUGUCUCUUGGAAUUCUCGGGUGCCAA,0.273
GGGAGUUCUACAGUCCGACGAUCGCCCUACAAAUAACCAGCCAGCUGUCCUGUGUGGGGACAGUGGGAGCCAAGUGGGAGGGGAAUGUGCCUUCCCUUCACAGCAGGAGCCAAAAGGAGGCUCCACGGGCCUCUGGAAUUCUCGGGUGCCAA,0.518
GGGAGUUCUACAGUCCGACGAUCGCUUGCAGUGCUCCUCAACAGAGGGAGAGUCUCCCUAAGAUUUCCAUGUUCCUAGACAAAGUCCUAAGCUGUUUGGAAGUCUGUGAGCAUUUUCAGUAUAUGAGGAGCUGUGGAAUUCUCGGGUGCCAA,0.822
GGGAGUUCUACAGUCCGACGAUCACAAAGACAGAGAUUUGGUCUGCUUGACUUUCCCAACCCAAUUGGCCCCAUUGGAGAGCCAUCCAAACUGAGGAAAAUUAGGGGACUCCAAAAGAGUUUGAUUCUGGCACUGGAAUUCUCGGGUGCCAA,0.219
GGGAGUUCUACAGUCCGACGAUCGGGCCGAUACUACGCGCUCAAGAGCAUGACGGAGGCGGAGCAGCAGCAGCUCAUCGACGACCACUUCCUCUUCGACAAGCCCGUGUCGCCCCUGCUGCUGGCCUCGGGCAUGGAAUUCUCGGGUGCCAA,5.22
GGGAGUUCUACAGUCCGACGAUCGAUUUUGCCCUGUAACUGCAUGUACAUGGUGUAUUUUGCCAUUAAGUCUUUUAUUUGUGGCAAUUUUGCCUUAGUAGGCGCUUGGCGUAGUUUCUAUUUUAUAGAAUAUUUGGAAUUCUCGGGUGCCAA,2.76

# Sample 4
# Target: Ras GTPase-activating protein-binding protein 1, full length (G3BP1, Homo sapiens, UniProt Q13283)
# Sequence of UniProt Q13283 (whole entry, looked up): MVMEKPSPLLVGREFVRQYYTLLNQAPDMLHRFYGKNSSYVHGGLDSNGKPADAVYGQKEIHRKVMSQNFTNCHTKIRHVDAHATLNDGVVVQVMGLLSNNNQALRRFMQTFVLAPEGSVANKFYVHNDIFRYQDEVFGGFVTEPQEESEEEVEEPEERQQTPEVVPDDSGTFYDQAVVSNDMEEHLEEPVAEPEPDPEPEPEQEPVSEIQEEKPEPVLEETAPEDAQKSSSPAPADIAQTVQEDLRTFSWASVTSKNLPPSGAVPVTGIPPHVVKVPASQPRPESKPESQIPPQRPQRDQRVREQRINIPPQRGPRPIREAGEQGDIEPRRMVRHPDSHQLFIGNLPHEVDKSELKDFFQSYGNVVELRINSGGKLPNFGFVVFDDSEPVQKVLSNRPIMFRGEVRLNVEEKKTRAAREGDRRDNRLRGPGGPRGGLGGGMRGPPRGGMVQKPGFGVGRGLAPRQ
# Method: RNA Bind-n-Seq
# Molecule type: RNA
# Matrix: in vitro
# Tested at: 200 nM
# Notes: whole 134-nt RNA, ends assumed
# Added: 150 mM LiCl
# Relative to: input library
# Reading: higher = stronger binding
# Each molecule: 7-deaza-guanosine replaces G
Sequence,log2 enrichment
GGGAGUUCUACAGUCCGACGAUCUCAAGUCCUGUGCUACACAUCGUAUGUACCGAAUCGGGAAAGGGGAAAGGAAAGGAAAGUAUUAUGUUACGCCGUUCGGAUCUGCACUUCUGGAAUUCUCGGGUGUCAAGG,-1.24
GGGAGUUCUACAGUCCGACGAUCUCCUCAAGUCCUGUGCUACACAUCGUAUGUACCGAAUCGGAGGAGGUUUGGAAAGUAUUAUGUUACGCCGUUCGGAUCUGCACUUCCAGCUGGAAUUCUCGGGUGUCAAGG,-1.73
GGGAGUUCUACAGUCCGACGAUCCACAGACAACACGCACCCACACAGACACAGAGGGAAGGGGUUGGGAUGGGGACAGGGUGCACAGCAGUGCGGGGUAGGACCCCAGCCCCUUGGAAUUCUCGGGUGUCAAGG,0.463
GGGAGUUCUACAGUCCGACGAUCACCAUGCAGGUGGGCAUCUUUGGGAAGUGGGGCAAGGGGGGUAUAGGGAGGGGGGUAACACUUUGGGAACAGGUGGUCCCAGGUCGUUUCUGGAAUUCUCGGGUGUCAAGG,0.11
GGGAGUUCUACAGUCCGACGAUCGUCCUGUGCUACACAUCGUAUGUACCGAAUCGGGAAAAAGGGGAAAAAGGAAAAAGGGGAAAGUAUUAUGUUACGCCGUUCGGAUCUGCAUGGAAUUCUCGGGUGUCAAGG,0.228
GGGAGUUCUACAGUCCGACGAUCAGUCCUGUGCUACACAUCGUAUGUACCGAAUCGGGGCCCCGGGGCCCCGGCCCCGGGGAAAGUAUUAUGUUACGCCGUUCGGAUCUGCACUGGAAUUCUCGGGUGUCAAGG,-1.08
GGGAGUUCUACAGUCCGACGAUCCAAGUCCUGUGCUACACAUCGUAUGUACCGAAUCGGGAAAAAAAGGGAGGGAGGGAAAGUAUUAUGUUACGCCGUUCGGAUCUGCACUUCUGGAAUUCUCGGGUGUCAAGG,-0.243
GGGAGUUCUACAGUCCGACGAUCUGGCCCUGGUGGCAUGCGGGGAGGAAGAGGUGGCCUCAUGGAUCGUGGUGGUCCCGGUAGAAUGUUCAGAGGUGGCCGUGGUGGAGACAGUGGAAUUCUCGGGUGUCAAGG,0.286
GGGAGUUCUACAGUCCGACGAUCUCCUGUGCUACACAUCGUAUGUACCGAAUCGGGGUGGGGUUUUUGGGGUUUUUUUGGGGAAAGUAUUAUGUUACGCCGUUCGGAUCUGCAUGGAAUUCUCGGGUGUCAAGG,0.335
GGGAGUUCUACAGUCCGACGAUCCCUCAAGUCCUGUGCUACACAUCGUAUGUACCGAAUCGGGUGGGGUGGGGUGGAAAGUAUUAUGUUACGCCGUUCGGAUCUGCACUUCCAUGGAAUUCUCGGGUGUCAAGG,-0.864
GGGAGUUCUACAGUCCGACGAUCUGGGAGGUGGAUUUUGUUUAUUUUGUUAGCUCAUUUCCAGGGGUGGGAAUUUUUUUUUAAUAUGUGUCAUGAAUAAAGUUGUUUUUGAAAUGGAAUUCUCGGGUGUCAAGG,-0.224

# Excerpt of the above (sample 1):
Sequence,E-score
AGGCACCG,0.0157
ACGGACGG,0.26
CAAGGCAG,-0.316
